Measurements from different studies.
Each numbered part is a random draw from the data of one study; scales do not carry over between parts.

Series 1 — method: protein-binding microarray; form: double-stranded DNA, one strand shown; medium: in vitro; tested at: not given; direction: higher = stronger binding
Target: Myc proto-oncogene protein, bHLH-zipper, MAX partner unstated (MYC, Homo sapiens, UniProt P01106, residues 368-449)
Sequence of UniProt P01106 (368-449, looked up): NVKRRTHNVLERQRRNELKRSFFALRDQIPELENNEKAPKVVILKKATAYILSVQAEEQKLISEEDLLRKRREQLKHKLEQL
Notes: k-mer, scored over probes, only values ≥0.25
Sequence | E-score
TCACATGA | 0.287
GCGCGCGC | 0.281
ATGTGTGG | 0.309
ATGCGTAC | 0.348
ACCAGGTG | 0.29
CACGAGGC | 0.473
CGTGTTCA | 0.394
GGGTGGGA | 0.273
CCGTGGTC | 0.253
ACCACGCC | 0.422
GTGCGCTA | 0.251
CACGTTAC | 0.379
AAGGCACG | 0.314

Series 2 — method: RNA Bind-n-Seq; form: RNA; medium: in vitro; tested at: 100 nM; notes: RNA with constant flanks, ends assumed; relative to: input RNA pool; direction: higher = stronger binding
Target: RING finger protein unkempt homolog, zinc fingers 1-6, SBP tag (UNK, Homo sapiens, UniProt Q9C0B0, residues 30-357)
Sequence of UniProt Q9C0B0 (30-357, looked up): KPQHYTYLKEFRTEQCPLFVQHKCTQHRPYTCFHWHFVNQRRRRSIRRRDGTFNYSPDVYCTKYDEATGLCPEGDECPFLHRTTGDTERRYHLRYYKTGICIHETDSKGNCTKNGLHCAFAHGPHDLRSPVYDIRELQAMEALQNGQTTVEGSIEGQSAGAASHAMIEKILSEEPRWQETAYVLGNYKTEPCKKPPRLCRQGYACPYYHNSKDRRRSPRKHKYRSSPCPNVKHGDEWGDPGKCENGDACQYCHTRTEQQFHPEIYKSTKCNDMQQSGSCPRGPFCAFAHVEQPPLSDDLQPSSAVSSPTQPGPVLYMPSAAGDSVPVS
Sequence | bound/input enrichment [ratio]
GGGAGUUCUACAGUCCGACGAUCUUCACCACUCCUGGGUGCAUGAUUGAGGGUGAAGCAUCCACCAGCACUUCAAGGGGUCCACCGUAUUUUUUUUUUUGCUGCCUCAAAGUCCCCAAAGCCUUCGAGCAGAAGUGGCAGCCGCAACAGAGGAUUGAGCAUCA | 0.87
GGGAGUUCUACAGUCCGACGAUCGUGCAAGGAAAUUAUUCCAACCCGUGAAUUUAUUAACAGUAAGUUAACAGCAAAAGCAAACCGGCAACUUCAAGAUCCUUCCGUAAUCAUGACAGGAAACAUCCCAACAUGGCUUACUGACAACAGAGGAUUGAGCAUCA | 0.369
GGGAGUUCUACAGUCCGACGAUCCCCAUGGCUGCUUUGUGUCACCUCAGUGACUUACAGUCCCCCUUGGCAUUCCGUUGGUACCCGAGCCAGUCAUCCUUAACAAAUCUUUUCACAUUUUAUUUCUUUCACAUGCCGUCAUCUCAACAGAGGAUUGAGCAUCA | 1.8

Series 3 — method: universal PBM; form: double-stranded DNA, one strand shown; medium: in vitro; tested at: 600 nM; direction: higher = stronger binding
Target: Sal-like protein 4, full length isoform A (SALL4, Homo sapiens, UniProt Q9UJQ4, residues 1-1053)
Sequence of UniProt Q9UJQ4 (whole entry, looked up): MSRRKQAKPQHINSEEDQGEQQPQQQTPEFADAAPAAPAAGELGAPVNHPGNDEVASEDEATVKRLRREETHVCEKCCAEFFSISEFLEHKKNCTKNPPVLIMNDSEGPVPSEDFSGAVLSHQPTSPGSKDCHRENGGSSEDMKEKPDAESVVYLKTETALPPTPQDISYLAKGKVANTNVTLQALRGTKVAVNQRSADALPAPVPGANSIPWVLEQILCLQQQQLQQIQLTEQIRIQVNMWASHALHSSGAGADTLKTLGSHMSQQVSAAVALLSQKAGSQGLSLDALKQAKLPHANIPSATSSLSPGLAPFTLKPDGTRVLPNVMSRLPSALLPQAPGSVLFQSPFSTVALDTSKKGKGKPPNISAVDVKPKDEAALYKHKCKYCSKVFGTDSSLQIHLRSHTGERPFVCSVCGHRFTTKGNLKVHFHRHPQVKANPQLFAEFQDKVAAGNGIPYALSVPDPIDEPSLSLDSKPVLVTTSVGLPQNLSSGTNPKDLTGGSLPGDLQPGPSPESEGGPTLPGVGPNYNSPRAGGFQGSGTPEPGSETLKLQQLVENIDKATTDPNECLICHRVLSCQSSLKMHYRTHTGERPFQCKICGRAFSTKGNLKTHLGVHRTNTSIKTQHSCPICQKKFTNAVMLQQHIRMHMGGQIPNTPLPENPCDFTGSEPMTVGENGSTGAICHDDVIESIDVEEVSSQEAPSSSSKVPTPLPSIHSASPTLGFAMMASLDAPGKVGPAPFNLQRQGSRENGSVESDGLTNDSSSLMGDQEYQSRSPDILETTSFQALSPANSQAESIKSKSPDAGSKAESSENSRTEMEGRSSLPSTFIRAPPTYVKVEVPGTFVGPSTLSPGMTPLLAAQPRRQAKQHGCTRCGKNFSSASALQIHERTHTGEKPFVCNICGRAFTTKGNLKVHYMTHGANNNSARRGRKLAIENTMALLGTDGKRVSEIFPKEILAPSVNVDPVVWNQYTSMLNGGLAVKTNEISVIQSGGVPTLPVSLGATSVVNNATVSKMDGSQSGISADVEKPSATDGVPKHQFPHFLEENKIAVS
Notes: 8-mer, flanks averaged, mean of replicates
Sequence | E-score
AGAGCCGA | -0.0541
AGATGGGG | -0.232
AGTTCTTC | -0.0396
AAAGCTAT | 0.207
CACTCCAG | -0.0204
GCGCCTTA | -0.18
GGCACCGA | -0.271
CCCCAGAA | -0.218
AAAATATC | 0.368
CTGAAGCA | -0.0136
CCATTGAA | 0.0299
AGGTGGTG | -0.103
ACAAAGTC | -0.098
ACACTCGT | 0.00622
GAACCTGA | -0.172
AGCCTCTG | -0.288

Series 4 — method: protein binding microarray; form: double-stranded DNA, one strand shown; medium: in vitro; tested at: not given; relative to: not given; direction: higher = stronger binding
Target: Histone acetyltransferase KAT6A, winged helix 1, GST fusion (KAT6A, Homo sapiens, UniProt Q92794, residues 1-85)
Notes: 8-mer, flanks averaged, mean of 2 arrays, mostly near background
Construct (chain): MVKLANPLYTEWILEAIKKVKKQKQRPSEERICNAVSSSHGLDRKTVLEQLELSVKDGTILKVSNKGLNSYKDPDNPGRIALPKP
Sequence | E-score
ACCCTAGA | -0.19
ATCACGCG | 0.259
AGTACTGC | 0.104
ACTCTGTC | -0.135
TAGATGCA | -0.2
AAGAATTC | -0.0618
GACGCATC | 0.176
GTATGAAC | 0.0371
GGGATGGA | -0.111
CAGTATGC | 0.0736
ATCCATTA | -0.154
GGCCGACA | 0.282
AAGCGCAA | 0.228
AAAGTATC | -0.0745
CGTTGACC | 0.0317
GCGATCGA | 0.185
ACTTCTAA | -0.0689
GGTGAAAC | -0.00972
TTTTAAAA | -0.142
AGCACCCG | 0.325
ACCTGAGT | 0.0206
GTCCTTGA | -0.0871
CGGATTAC | 0.0988
AGCATCCT | 0.0254
GTGCCAAA | -0.164

Series 5 — method: RNA Bind-n-Seq; form: RNA; medium: in vitro; tested at: 365 nM; relative to: no-protein control; direction: higher = stronger binding
Target: RNA binding protein fox-1 homolog 2, RRM domain, GST-SBP tag (RBFOX2, Homo sapiens, UniProt O43251-10, residues 100-194)
Notes: natural RNA segment, single round, ends assumed
Constant ends, left off below: GGGAGUUCUACAGUCCGACGAUC … UGGAAUUCUCGGGUGCCAA
Target sequence (chain): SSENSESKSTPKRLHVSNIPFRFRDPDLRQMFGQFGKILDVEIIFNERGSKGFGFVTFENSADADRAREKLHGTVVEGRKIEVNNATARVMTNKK
Sequence | RBNS enrichment (R)
CGUUAAAUUUUCAGUCCAGUUAUGAACAGCAAGUGUUGAACUCUUUCUGCUUGUUUUGAUUCAAAGUGCAGUUACUGAUGUUGUUUUGAUUAUGCAACUAAGUAGGCCUC | 0.988
UGACGAGGAGAUGACGGGCGAAUACCCUGCUGCCCGGUGCCUUGAGGGGGUCUCAGGGCAGCAGCAUACAAGGUGGCAGCGGGUAACCCUGCCUUGUUCUGUCAUCCAGG | 0.295
CAUUGUUUGCUGCUAUUGGAGGAUCAGUUUUUUGUUUUACAAUGUCAUAUACUGCCAUGUACUAGUUUUAGUUUUCUCUUAGAACAUUGUAUUACAGAUGCCUUUUUUGU | 1.25
CUCCCAAGCCAGAGUCAAGGUCUGACGCCACCUCAAGGUGACAGCUCAUCUCCAGCACAGCACAGGCGUGUGCACACAGAGGUGUUCCUUGCAGCCCCCUCCCUCUCAGG | 0.402
CCCUCAGGAUGCAGGGUGCUGGGUCUUCUGGUUUUGUUUGGGUUAAAACAGAACUUUCCCAUUAUCUGUAGGGAACAGAGUAACGCAUAGUCUUUAAAAAUCAGUCCCAG | 0.891
UUGCAACCUAUUUAAUUUUUUUUAAAUGCCUAACUUCUGAGGUGCAUAAGCCCGUGGUUUGUGUACUGGAACUAAAGCGGAACUCACUGAUUCAUAUUGGAUCCCCAGGU | 0.277
UAGUAUAAUUGUUAUAUUAAGGAGUUAUUUUUUCUUAAAACAUUUUUUUUUGCUUGUUUUGGUUCUGUUCUCACUUUUAAAGGAUGCUGAGAUGGUAAUAUGACUCUCCA | 0.581
GGAUCUUCAGAAUUCUAAAGGCACAUGUUAGAAUGCAGAGUCCUGAUGACCUGUCAAUAAACUUUUUUUUACUAAUGAACUGUACAUUUAAAUAAAAGUUUAUUUUUGGG | 1
UUAAUUUUCUUUCCAGGUAGAGUAGCUCUUUGUACAUAAAGAAUACUUGAAAAAUUAAUUGUAUGAUGUAUGAGAAGACAGAGUCUCCUAGUUUUGUAUCUUGUUGUAUG | 4.12
GUUAGCUGAAGAUGGGAAAGACUCAAGCCAUUGGGGUAAAGAUAACCAGAUUGAUCCAAUUGGCCAUGGGAGCUUAGGCCAUAGUCUUGGAAGUGAGCAGGACAAAGACC | 0.638
GUUUCCUUUUUUGUUUUUAAAUCCUUCUCUAGUGACUGAAGAAAUUGUGAGUACAUAAUAUUUAGGUCAUGGUUAAGGAACAUUAAAAUAAACCUGCAGUUUAACAGAAU | 0.433
AGAGAGUGAAUUUCAGUAUACAGACAGCCUGCUCUACCCACCCCUUCCUUACCACGGCCCACGUAAAUGUGACCCUGGACAUCUGUCACACGAAAGCUAAGCUGGUGGCC | 0.788

Series 6 — method: aptamer microarray, sandwich; form: DNA with 2'F-ANA; medium: in vitro; tested at: 200 nM; together with: Cy3 exosite-II aptamer, 400 nM; direction: higher = stronger binding; sequence: GGTTGGTGTGGTTGG
Target: Prothrombin, mature alpha-thrombin (F2, Homo sapiens, UniProt P00734)
Notes: whole 15-mer aptamer, many near background
Modification | mean fluorescence intensity [a.u.]
2'F-ANA at 2 3 8 11 14 15 | 380
2'F-ANA at 1 2 4 9 10 11 12 13 14 15 | 59.8
2'F-ANA at 3 4 5 6 8 10 11 13 14 15 | 52.3
2'F-ANA at 1 5 7 8 12 13 14 | 48.1
2'F-ANA at 1 2 4 6 7 8 9 10 13 14 | 49.6
2'F-ANA at 4 5 6 10 11 14 | 45
2'F-ANA at 3 4 5 10 11 12 14 15 | 47.9
2'F-ANA at 6 8 10 12 13 14 | 145
2'F-ANA at 8 9 11 14 15 | 185
2'F-ANA at 3 5 7 8 | 174
2'F-ANA at 4 6 8 10 14 | 54.9
2'F-ANA at 1 5 6 8 9 10 11 13 15 | 46.7
2'F-ANA at 1 2 3 7 8 10 13 14 15 | 57.6
2'F-ANA at 1 2 3 4 6 7 8 9 12 13 14 | 64.4
2'F-ANA at 3 8 12 13 14 | 700
2'F-ANA at 1 3 7 8 10 11 12 13 14 | 179
2'F-ANA at 1 3 6 7 8 10 11 12 13 15 | 169
2'F-ANA at 1 3 4 6 11 12 14 15 | 81
2'F-ANA at 3 5 6 8 9 10 11 14 | 56.1
2'F-ANA at 2 3 4 8 10 12 14 15 | 192
2'F-ANA at 1 3 5 7 8 9 11 13 | 54.7
2'F-ANA at 2 4 6 7 8 12 13 14 | 118
2'F-ANA at 3 6 7 8 12 13 14 | 645
2'F-ANA at 3 5 6 10 12 13 15 | 57.8
2'F-ANA at 2 4 5 6 8 10 12 | 55

Excerpt of the above (series 4):
Sequence | E-score
GGTGAAAC | -0.00972
GTGCCAAA | -0.164
AAAGTATC | -0.0745
AAGCGCAA | 0.228
TAGATGCA | -0.2
ATCCATTA | -0.154
GGGATGGA | -0.111
GTATGAAC | 0.0371
CGTTGACC | 0.0317
ACTTCTAA | -0.0689
